# Assay results collected from several papers.
# Lines come from different studies, so protocols differ.
# Organism: Pseudomonas aeruginosa
Compound,test,system,setting,scale,MIC
CC(C)C[C@H](NC(=O)[C@H](CC(C)C)NC(=O)[C@H](CCCCN)NC(=O)CNC(=O)[C@H](CC(C)C)NC(=O)[C@H](CC(C)C)NC(=O)[C@H](CO)NC(=O)[C@H](CC(C)C)NC(=O)[C@H](CC(C)C)NC(=O)[C@@H]1CCCN1C(=O)[C@H](CC(C)C)NC(=O)[C@H](CC(C)C)NC(=O)CN)C(N)=O,broth microdilution,,,,> 100 µM
CC[C@H](C)[C@@H]1NC(=O)CNC(=O)[C@H](CCCCN)NC(=O)[C@H](C)NC(=O)[C@H](CCC(=O)O)NC(=O)[C@H](Cc2ccccc2)NC(=O)[C@H](CO)NC(=O)[C@H](CC(C)C)NC(=O)[C@H](C(C)C)NC(=O)[C@H](CC(=O)O)NC(=O)[C@@H](NC(=O)[C@@H](NC(=O)[C@@H](N)C(C)C)[C@@H](C)O)CSSC[C@@H]2NC(=O)[C@H](CO)NC(=O)CNC(=O)CNC(=O)[C@H](CCCCN)NC(=O)[C@H](CCCCN)NC(=O)[C@H](CCCNC(=N)N)NC(=O)[C@H](CC(C)C)NC(=O)[C@H](C)NC(=O)[C@H]([C@@H](C)CC)NC(=O)[C@H](C)NC(=O)[C@H](Cc3c[nH]cn3)NC(=O)[C@H](CC(C)C)NC(=O)[C@H](C)NC(=O)[C@H](CSSC[C@@H](C(=O)N[C@H](C(=O)N[C@@H](C)C(=O)N[C@@H](CCCNC(=N)N)C(=O)N[C@@H](CC(N)=O)C(=O)O)C(C)C)NC(=O)[C@H](C(C)C)NC(=O)CNC(=O)[C@H](CC(N)=O)NC(=O)[C@H](CCC(N)=O)NC2=O)NC(=O)[C@H](C)NC(=O)[C@H](CO)NC(=O)[C@H](Cc2c[nH]cn2)NC(=O)[C@H](CC(N)=O)NC(=O)[C@H](C(C)C)NC(=O)[C@H](C)NC1=O,broth microdilution,KCTC 1637,"16 h, 37 °C",,> 100 µM
C[C@@H](N)[C@H](O)CCCCCCCC(=O)CCCCCCCCCCCCCC[C@@H](O[C@@H]1O[C@H](CO)[C@@H](O)[C@H](O)[C@H]1O)[C@@H](N)CO,"microbial growth, resazurin",ATCC27853,6 h,,23.5 µM
CCCCCCCC[C@@H]1NC(=O)[C@@H](Cc2ccccc2)NC(=O)[C@H](CCN)NC(=O)[C@@H](NC(=O)[C@H](CCN)NC(=O)[C@@H](NC(=O)[C@H](CCN)NC(=O)c2ccc(-c3ccccc3)cc2)[C@@H](C)O)CCNC(=O)[C@H]([C@@H](C)O)NC(=O)[C@H](CCN)NC(=O)[C@H](CCN)NC1=O,broth microdilution,"ATCC 27853, polymyxin susceptible, CAMHB","18 h, 37 °C",,4 µg/mL
CC[C@H](C)[C@H](NC(=O)[C@@H](CCCNC(=N)N)NC(=O)[C@H](CCCNC(=N)N)NC(=O)[C@@H]1CCCN1C(=O)[C@H](Cc1c[nH]c2ccccc12)NC(=O)[C@H](CCCNC(=N)N)NC(=O)[C@@H]1CCCN1C(=O)[C@H](CCCNC(=N)N)NC(=O)[C@@H]1CCCN1C(=O)[C@H](CC(C)C)NC(=O)[C@H](Cc1ccc(O)cc1)NC(=O)[C@@H]1CCCN1C(=O)[C@@H]1CCCN1C(=O)[C@H](CCCCN)NC(=O)[C@H](CC(=O)O)NC(=O)[C@@H](N)C(C)C)C(=O)N[C@@H](Cc1ccc(O)cc1)C(=O)N[C@@H](CC(N)=O)C(=O)N[C@H](CCCNC(=N)N)C(N)=O,broth microdilution,DSM 1117,18 h,,128 µg/mL
COc1cc2c(=O)c(C(=O)NCCNCCO)cn(Cc3ccccc3)c2cc1OCc1cccc(Br)c1,,ATCC 27853,,≥80% growth inhibition,< 0.25 µg/mL
CC(C)C[C@@H]1NC(=O)[C@H](CCN)NC(=O)CSC[C@@H]2NC(=O)[C@H](CC(C)C)NC(=O)[C@H](CC(C)C)NC(=O)[C@H](CCN)NC(=O)[C@H](CCCCNC(=O)[C@H](CCN)NC1=O)NC(=O)[C@H](CCN)NC(=O)[C@H](CC(C)C)NC(=O)[C@H](CCN)NC(=O)CSC[C@@H](C(=O)N[C@@H](CCN)C(N)=O)NC(=O)[C@H](CC(C)C)NC(=O)[C@H](CC(C)C)NC(=O)[C@H](CC(C)C)NC2=O,,PAO1,18 h,,64 µg/mL
CCCCCCCC[C@H]1NC(=O)[C@H](CCN)NC(=O)[C@@H](NC(=O)[C@H](CCN)NC(=O)[C@@H](NC(=O)[C@H](CCN)NC(=O)c2ccc(-c3ccccc3)cc2)[C@@H](C)O)CCNC(=O)[C@H]([C@@H](C)O)NC(=O)[C@H](CCN)NC(=O)[C@H](CCN)NC(=O)[C@H](CC(C)C)NC1=O,,"FADDI-PA070, CaMHB","18 h, 37 °C",,2 µg/mL
CC(C)C[C@@H]1NC(=O)[C@H](CCCCN)NC(=O)CSC[C@@H]2NC(=O)[C@H](CC(C)C)NC(=O)[C@H](CC(C)C)NC(=O)[C@H](CCCCN)NC(=O)[C@H](CCCCNC(=O)[C@H](CCCCN)NC1=O)NC(=O)[C@H](CCCCN)NC(=O)[C@H](CC(C)C)NC(=O)[C@H](CCCCN)NC(=O)CSC[C@@H](C(=O)N[C@@H](CCCCN)C(N)=O)NC(=O)[C@H](CCCCN)NC(=O)[C@H](CC(C)C)NC(=O)[C@H](CC(C)C)NC2=O,,PAO1,18 h,,> 256 µg/mL
CCn1c(-c2ccc(OC)cc2)c(-c2ccc(OC)cc2)n(Cc2c(C)cc(C)cc2C)c1=[Se+][Au-][P+](c1ccccc1)(c1ccccc1)c1ccccc1.[Cl-],broth microdilution,carbapenem-resistant ATCC BAA-2108,24 h,,> 40 µM
CC[C@@H](C)[C@@H](NC(=O)[C@@H](C)NC(=O)[C@@H](CCCCN)NC(=O)[C@@H](CC(C)C)NC(=O)[C@@H](C)NC(=O)[C@H](NC(=O)[C@@H](Cc1c[nH]cn1)NC(=O)[C@@H](CC(C)C)NC(=O)[C@H](NC(=O)[C@H](NC(=O)[C@@H](CCCCN)NC(=O)[C@@H](CCCCN)NC(=O)[C@@H](C)NC(=O)[C@@H](CO)NC(=O)[C@@H](CCCCN)NC(=O)[C@@H](Cc1ccccc1)NC(=O)[C@H](NC(=O)[C@@H](CCCCN)NC(=O)[C@@H](CC(C)C)NC(=O)[C@@H](Cc1ccccc1)NC(=O)[C@@H](CO)NC(=O)[C@@H](CCCCN)NC(=O)[C@@H](Cc1c[nH]c2ccccc12)NC(=O)[C@@H](CCCCN)NC(C)=O)[C@H](C)O)[C@H](C)O)C(C)C)[C@H](C)O)C(=O)N[C@H](CO)C(=O)N[C@H](CO)C(N)=O,broth microdilution,M2,"24 h, 37 °C",,2.6 µM
CC(C)[C@H](NC(=O)[C@H]1NC(=O)[C@H](CO)NC(=O)[C@H](CC(N)=O)NC(=O)[C@@H](N)Cc2c[nH]c3cc(ccc23)C1C(N)=O)C(=O)N[C@H]1Cc2cn(cn2)C(c2ccc(O)cc2)[C@@H](C(=O)N[C@@H](CCCNC(=N)N)C(=O)N[C@@H](Cc2ccccc2)C(=O)O)NC(=O)[C@H](CO)NC1=O (stereo partly drawn),,PA14,,,16 µg/mL

# A few entries again:
Compound,test,system,setting,scale,MIC
COc1cc2c(=O)c(C(=O)NCCNCCO)cn(Cc3ccccc3)c2cc1OCc1cccc(Br)c1,,ATCC 27853,,≥80% growth inhibition,< 0.25 µg/mL
CC(C)C[C@@H]1NC(=O)[C@H](CCN)NC(=O)CSC[C@@H]2NC(=O)[C@H](CC(C)C)NC(=O)[C@H](CC(C)C)NC(=O)[C@H](CCN)NC(=O)[C@H](CCCCNC(=O)[C@H](CCN)NC1=O)NC(=O)[C@H](CCN)NC(=O)[C@H](CC(C)C)NC(=O)[C@H](CCN)NC(=O)CSC[C@@H](C(=O)N[C@@H](CCN)C(N)=O)NC(=O)[C@H](CC(C)C)NC(=O)[C@H](CC(C)C)NC(=O)[C@H](CC(C)C)NC2=O,,PAO1,18 h,,64 µg/mL
